Published values of several laboratories.
Protocols differ between the studies behind these lines. Values joined by “and” are separate records of one study, mostly repeats; a detail may differ. ± marks the error that the study gave.

CCOc1c([C@H](C)n2nc(C)c3c(N)ncnc32)cc(Cl)c(F)c1[C@@H]1CNC(=O)C1
percent change in level (Olink proximity extension, refers to: IL-12B; human FL or MZL patients, plasma; dose not given, week 8 day 1, once-daily dosing; relative to: baseline): -48%

CN[C@@H](C)C(=O)N[C@H]1CN(S(=O)(=O)c2cccc(S(=O)(=O)N3CC[C@H]4CC[C@@H](C(=O)NC(c5ccccc5)c5ccccc5)N4C(=O)[C@@H](NC(=O)[C@H](C)NC)C3)c2)CC[C@H]2CC[C@@H](C(=O)NC(c3ccccc3)c3ccccc3)N2C1=O
best response partial response (RECIST 1.1; advanced pancreatic cancer patients; dose not given, prior therapy, with: AG): 16.7%

Cc1ccc(NC(=O)c2ccnc(C(F)(F)F)c2)cc1-c1cc(OCCO)nc(N2CCOCC2)c1
best overall response unknown (MAPK-altered advanced solid tumour patients; dose not given, single-agent dose escalation): 21.8%

O=C(NO)c1ccc(CN(c2cnccn2)c2cnccn2)cc1
plasma IL-10 level (human; dose not given, patients, paired sample, pre-treatment on A): no effect

COc1ccccc1[C@H](Cn1c(=O)n(C(C)(C)C(=O)O)c(=O)c2c(C)c(-c3ncco3)sc21)OC1CCOCC1
fractional hepatic DNL ([1-13C]acetate infusion, isotopomer analysis; overweight or obese healthy men, plasma VLDL-TG palmitate; oral, 20 mg single dose, 6 h post-dose, with: oral fructose): 10.5 % new palmitate

O[C@H]1CCCN[C@@H]1CCCn1cnc2c(Cl)c(Cl)ccc21
maximum reduction (ELISA, refers to: Pro-C6; healthy human volunteers, serum; 50 mg, day 1, multiple ascending dose): 11.3%

c1ccc(-c2n[nH]cc2-c2ccnc3ccccc23)nc1
log2 fold change (kinase binding, competitor, MIB/MS competition, refers to: GIN4; Candida albicans cell lysate; 1 µM; relative to: DMSO): 1.38

CNC(=O)c1ccc(N2C(=S)N(c3ccc(C#N)c(C(F)(F)F)c3)C(=O)C2(C)C)cc1F
full-length AR protein level (western blot; NRG mouse male, CWR22Rv1 xenograft, tumour; dose not given, 16 days): no effect

CC1(C)CCC(CN2CCN(c3ccc(C(=O)NS(=O)(=O)c4ccc(NCC5CCOCC5)c([N+](=O)[O-])c4)c(Oc4cnc5[nH]ccc5c4)c3)CC2)=C(c2ccc(Cl)cc2)C1
EC50 (cell kill, PI exclusion flow cytometry; unclassified leukaemia cells, human; 24 h): 20 nM

Cc1ccc(C(=O)OCc2ccc([C@@H](CN)C(=O)Nc3ccc4cnccc4c3)cc2)c(C)c1
IOP (tonometry; NZW rabbit, magnetic bead-induced ocular hypertension; ocular, 0.02%, 4 h): 33.8 mmHg

CCc1c(C)nc(-c2ccc(Cl)s2)nc1Nc1ccc(CC(=O)O)cc1
protein level (refers to: UCP1; mice, chronic ethanol plus binge, brown adipose tissue; intraperitoneal, 0.3 mg/kg daily, ethanol diet 4 weeks, dosed last two; relative to: vehicle): increased

COc1ncnn2ccc(-c3cnc4nc(C)n(Cc5nnc([C@@H](C)F)o5)c4c3)c12
best overall response PR (relapsed or refractory AML or MDS patients; dose not given): 0%

CC(C)C[C@H](NC(=O)[C@H](CC(C)C)NC(=O)[C@H](Cc1c[nH]c2ccccc12)NC(=O)[C@H](CCC(=O)O)NC(=O)[C@@H](NC(=O)[C@H](Cc1ccccc1)NC(=O)[C@H](CCC(=O)O)NC(=O)[C@H](CCCCNC(=O)COCCOCCNC(=O)COCCOCCNC(=O)CC[C@H](NC(=O)CCCCCCCCCCCCCCCCCCC(=O)O)C(=O)O)NC(=O)[C@H](C)NC(=O)[C@H](CCCCN)NC(=O)[C@H](CCCCN)NC(=O)[C@H](CCC(=O)O)NC(=O)[C@H](CC(=O)O)NC(=O)[C@H](CC(C)C)NC(=O)[C@H](Cc1ccc(O)cc1)NC(=O)[C@H](CCCCN)NC(=O)[C@H](CO)NC(=O)[C@H](Cc1ccc(O)cc1)NC(=O)[C@H](CC(=O)O)NC(=O)[C@H](CO)NC(=O)[C@@H](NC(=O)[C@H](Cc1ccccc1)NC(=O)[C@@H](NC(=O)CNC(=O)[C@H](CCC(N)=O)NC(=O)C(C)(C)NC(=O)[C@@H](N)Cc1c[nH]cn1)[C@@H](C)O)[C@@H](C)O)C(C)C)C(=O)N[C@@H](CCC(=O)O)C(=O)NCC(=O)NCC(=O)N1CCC[C@H]1C(=O)N[C@@H](CO)C(=O)N[C@@H](CO)C(=O)NCC(N)=O
percent change from baseline (refers to: C-peptide; human, fasting plasma; dose not given, day 134, LS mean; relative to: baseline): -16.9%

C=C1CC[C@H](OCCCNC(=O)CCOCCOCCOCCOCCOCCOCCOCCOCCOCCOCCOCCOCCOCCOCCOCCOCCOCCOCCOCCOCCOCCOCCOCCOCCOCCOCCOCCOCCOCCOCCOCCOCCOCCOCCOCCOCCNC(=O)CCN2C(=O)CC(SC[C@H](NC(=O)[C@H](CCCNC(=N)N)NC(=O)[C@@H]3CCCN3C(=O)[C@H](CCC(N)=O)NC(=O)[C@H](CC(C)C)NC(=O)[C@H](CCCCN)NC(=O)[C@H](C)NC(=O)[C@@H]3CCCN3C(=O)[C@@H]3CCCN3C(=O)[C@H](CCCCN)NC(=O)[C@H](CCCCN)NC(=O)[C@H](CO)NC(=O)[C@H](CCC(=O)O)NC(=O)[C@H](CCCCN)NC(=O)[C@H](CCCNC(=N)N)NC(=O)[C@H](CCC(N)=O)NC(=O)[C@H](CCC(N)=O)NC(=O)[C@@H](NC(=O)[C@H](CCCNC(=N)N)NC(=O)[C@H](CCC(N)=O)NC(=O)[C@H](Cc3c[nH]cn3)NC(=O)[C@H](CCC(=O)O)NC(=O)[C@@H]3CCCN3C(=O)[C@H](CO)NC(=O)[C@H](CC(C)C)NC(=O)[C@H](Cc3ccccc3)NC(=O)[C@H](CNC(=O)CCCCCCC)NC(=O)[C@H](CO)NC(=O)CN)C(C)C)C(=O)O)C2=O)C/C1=C/C=C1\CCC[C@]2(C)[C@@H]([C@H](C)CCCC(C)(C)O)CC[C@@H]12 (some centres unmarked)
protein level (western blot, refers to: PGC-1α; mice, LLC tumour-bearing, gastrocnemius/plantaris muscle; daily or every other day): no effect

CC(C)NCC(O)c1ccc(O)c(O)c1 (centres unmarked)
sarcomere length (ventricular cardiomyocytes, C57BL/6 mouse; dose not given, 0.788 s): 1.68 µm

CCO[C@H]1CCN(Cc2c(OC)cc(C)c3[nH]ccc23)[C@H](c2ccc(C(=O)O)cc2)C1
C3d-positive type III RBCs (PNH patients, blood; oral, 25 mg then 100 mg, week 2, mean absolute change; relative to: baseline): -0.7%

O=c1c(NCCc2cccc(Cl)c2)c(Nc2ccc(Cl)cc2)c1=O
cocaine behavioural sensitization (rat; ip repeated, 5.6 mg/kg, with: cocaine 32 mg/kg): decreased

O=C(O)CNC(=O)Cc1ccccc1
sarcomere length (ventricular cardiomyocytes, C57BL/6 mouse; dose not given, 0.18 s): 1.63 µm

CCN1CCN(Cc2ccc(Nc3ncc(F)c(-c4cc(F)c5nc6n(c5c4)[C@H](C)CCC6)n3)nc2)CC1
confirmed objective response rate (Phase Ia, RECIST v1.1; patients with advanced solid tumours; dose not given, monotherapy, investigator-assessed): 4.2%

N#Cc1ccc2c(-c3ccncc3)c(-c3ccc(F)cc3)nn2c1
log2 fold change (kinase binding, competitor, MIB/MS competition, refers to: SSK2; Candida albicans cell lysate; 10 µM; relative to: DMSO): 0.382

COc1cc(O)c(CC=C(C)C)c(O)c1C(=O)/C=C/c1ccc(O)cc1
blood glucose (glucose tolerance test; Tac:SW mice (male, germ-free, high-fat diet); in diet, 60 mg/kg per day, 30 min after glucose, after 10 weeks): 323 mg/dL

Cn1cc([C@H]2C[C@H]3CSC(N)=N[C@@]3(c3ccc(F)cc3F)CO2)cn1
Aβ40 level (refers to: Aβx-40; Mus musculus wild-type, cerebrospinal fluid; subcutaneous, 50 mg/kg, 3 h): 0.25 ng/mL

CCCCCN1C[C@H](O)[C@@H](O)[C@H](O)[C@@H]1CO
decreased sphingolipid species (Hexb-/- mouse, plasma; 300 mg/kg/day, unit not given; relative to: 30 mg/kg/day): 22

OC(CCN1CCCCC1)(c1ccccc1)C1CC2C=CC1C2 (centres unmarked)
power, EEG, Alpha, O2-Pz (resting-state EEG; healthy elderly humans; oral, 4 mg, eyes closed, LS mean): 18.3 µV²

C[C@H](Oc1ccc(Br)cc1-c1ccon1)C(=O)O
difference from placebo (relative refractory period; human, tibialis anterior muscle; 1200 mg, SAD): 0.16 ms

Cc1cc(C)c(CNC(=O)c2cc(Cl)c3c(c2C)O[C@@](C)([C@H]2CC[C@H](N(C)C)CC2)O3)c(=O)[nH]1
best overall response NE (relapsed/refractory NHL patients, total incl. ATLL and CTCL; oral, dose not given): 5%

N#Cc1ccc2c(c1)[C@H]1CCCN(C(=O)c3ccc4[nH]cnc4c3)[C@H]1C2
change from baseline (refers to: ACTH; human, Phase II trial; oral, 80 mg once daily, HPA axis, mean): 3.7 pmol/L

Cc1cc(Nc2cc3ncccc3c(N[C@@H]3C[C@H]4CC[C@@H](C3)N4CCC#N)n2)n[nH]1
pSTAT3 level (Balb/c mice, oxazolone colitis, colonic mucosa; oral, 30 mg/kg twice daily; relative to: vehicle): inhibited

N#Cc1ccn2c(-c3ccncc3)c(-c3ccc(F)cc3)nc2c1
log2 fold change (kinase binding, competitor, MIB/MS competition, refers to: KSP1; Candida albicans cell lysate; 10 µM; relative to: DMSO): -0.485

CCCCc1nc2c(N)nc3ccccc3c2n1Cc1ccc(N)cc1
concentration (TNF-α release, ELISA; PBMC, human; 24 h): ~10 µM

CN(C)C(=O)Oc1cccc([N+](C)(C)C)c1
train-of-four ratio (neuromuscular block reversal; rat; dose not given, 15 (unit not given), with: cisatracurium; relative to: T1 twitch): 96.6

OC[C@H]1O[C@@H](c2ccc(Cl)c(Cc3ccc(O[C@H]4CCOC4)cc3)c2)[C@H](O)[C@@H](O)[C@@H]1O
diastolic blood pressure change (Japanese type 1 diabetes patients; 10 mg, day 28, 672 h; relative to: baseline): -2.7 mmHg

C[C@H]1C[C@H]2CSC(N)=N[C@@]2(c2nc(NC(=O)c3ccc(OC(F)F)cn3)cs2)CO1
percent change from baseline (refers to: total Aβ; healthy adults, plasma; 12 mg single dose, 8 h post-dose; relative to: placebo): -46.9%

C[C@H](CS)C(=O)N1CCC[C@H]1C(=O)O
Leu-enkephalin concentration (LC-MS/MS, refers to: extracellular Leu-enkephalin; mouse striatal brain slices; 10 µM, 20 min, with: 50 mM KCl): 660 pM and 1010 pM and 1120 pM and 561 pM and 736 pM

Cc1c(C)n(Cc2cccc(OC(C)(C)C(=O)O)c2)c2ccc(C(=O)N[C@@H](C)c3ccc(C(C)(C)C)cc3)cc12
bone volume (C57BL/6 mouse, diet-induced obesity, L4 vertebra; dose not given): 0.314 ± 0.103 mm3

CN[C@@H]1COc2c(S(=O)(=O)NC(=O)Nc3c4c(cc5c3CCC5)CCC4)cnn2C1
inhibition (refers to: IL-1β; human participants, whole blood ex vivo; 900 mg twice daily, multiple doses, 145 h, with: LPS/ATP; relative to: baseline): 99.9%

COc1ccc2c(c1)CN(C(=O)CCN1CCC(Cc3ccccc3)CC1)CC[S@@+]2[O-]
ventricular ERP prolongation (anaesthetised Beagle dogs; intravenous, 0.1 mg/kg, pacing cycle length 250 ms): 10.3%

CNCc1cc(-c2ccccc2F)n(S(=O)(=O)c2cccnc2)c1
inhibition (basal gastric acid secretion; pylorus-ligated rat; oral, 2 mg/kg): 66.9%

A few entries again:
N#Cc1ccc2c(c1)[C@H]1CCCN(C(=O)c3ccc4[nH]cnc4c3)[C@H]1C2
change from baseline (refers to: ACTH; human, Phase II trial; oral, 80 mg once daily, HPA axis, mean): 3.7 pmol/L

CC(C)NCC(O)c1ccc(O)c(O)c1 (centres unmarked)
sarcomere length (ventricular cardiomyocytes, C57BL/6 mouse; dose not given, 0.788 s): 1.68 µm

O=c1c(NCCc2cccc(Cl)c2)c(Nc2ccc(Cl)cc2)c1=O
cocaine behavioural sensitization (rat; ip repeated, 5.6 mg/kg, with: cocaine 32 mg/kg): decreased

c1ccc(-c2n[nH]cc2-c2ccnc3ccccc23)nc1
log2 fold change (kinase binding, competitor, MIB/MS competition, refers to: GIN4; Candida albicans cell lysate; 1 µM; relative to: DMSO): 1.38

CCCCCN1C[C@H](O)[C@@H](O)[C@H](O)[C@@H]1CO
decreased sphingolipid species (Hexb-/- mouse, plasma; 300 mg/kg/day, unit not given; relative to: 30 mg/kg/day): 22
